Literature values that unrelated publications cite.
Lines come from different studies, so protocols differ. Numbers after ± are the reported error.
UniProt P21554, sequence (whole entry, looked up): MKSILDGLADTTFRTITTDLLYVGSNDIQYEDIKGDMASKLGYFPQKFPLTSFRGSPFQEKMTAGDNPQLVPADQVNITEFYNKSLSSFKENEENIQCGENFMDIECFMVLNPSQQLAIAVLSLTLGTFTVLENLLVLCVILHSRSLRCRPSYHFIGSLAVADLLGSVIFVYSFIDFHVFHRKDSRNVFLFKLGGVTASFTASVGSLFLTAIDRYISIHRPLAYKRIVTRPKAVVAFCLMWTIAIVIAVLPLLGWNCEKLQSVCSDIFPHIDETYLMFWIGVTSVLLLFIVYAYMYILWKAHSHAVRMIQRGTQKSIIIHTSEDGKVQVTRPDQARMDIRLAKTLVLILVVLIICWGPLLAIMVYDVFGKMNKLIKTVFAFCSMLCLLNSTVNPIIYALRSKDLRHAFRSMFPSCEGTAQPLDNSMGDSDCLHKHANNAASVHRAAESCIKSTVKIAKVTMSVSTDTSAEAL
UniProt P46098, sequence (whole entry, looked up): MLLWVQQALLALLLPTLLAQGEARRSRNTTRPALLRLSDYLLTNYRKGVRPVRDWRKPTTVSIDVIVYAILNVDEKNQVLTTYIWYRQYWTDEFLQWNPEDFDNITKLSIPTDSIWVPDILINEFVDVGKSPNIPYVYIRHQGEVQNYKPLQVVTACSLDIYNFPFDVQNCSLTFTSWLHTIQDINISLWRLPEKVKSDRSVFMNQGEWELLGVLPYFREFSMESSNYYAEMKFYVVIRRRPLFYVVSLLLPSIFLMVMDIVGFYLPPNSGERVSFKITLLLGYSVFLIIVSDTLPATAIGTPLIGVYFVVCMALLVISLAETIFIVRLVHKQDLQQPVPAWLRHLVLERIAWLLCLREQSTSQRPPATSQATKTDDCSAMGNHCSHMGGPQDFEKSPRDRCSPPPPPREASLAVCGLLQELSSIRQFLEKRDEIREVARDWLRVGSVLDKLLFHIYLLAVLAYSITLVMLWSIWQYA
UniProt Q14973, sequence (whole entry, looked up): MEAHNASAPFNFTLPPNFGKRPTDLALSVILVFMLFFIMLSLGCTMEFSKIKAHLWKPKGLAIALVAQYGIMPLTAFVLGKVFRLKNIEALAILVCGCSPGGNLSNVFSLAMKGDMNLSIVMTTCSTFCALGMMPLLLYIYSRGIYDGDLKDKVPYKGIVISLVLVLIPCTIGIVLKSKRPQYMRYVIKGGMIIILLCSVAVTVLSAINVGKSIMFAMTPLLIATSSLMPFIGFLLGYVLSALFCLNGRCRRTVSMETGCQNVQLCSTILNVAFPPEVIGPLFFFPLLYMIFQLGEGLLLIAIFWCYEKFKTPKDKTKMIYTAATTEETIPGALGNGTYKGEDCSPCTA
UniProt P25084, sequence (whole entry, looked up): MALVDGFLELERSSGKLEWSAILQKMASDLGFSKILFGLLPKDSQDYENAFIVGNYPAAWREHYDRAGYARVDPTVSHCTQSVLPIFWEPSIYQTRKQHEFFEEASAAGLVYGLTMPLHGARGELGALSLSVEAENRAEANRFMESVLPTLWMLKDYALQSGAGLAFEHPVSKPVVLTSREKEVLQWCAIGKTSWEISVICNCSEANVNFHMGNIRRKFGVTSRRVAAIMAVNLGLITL
UniProt P97266, sequence (whole entry, looked up): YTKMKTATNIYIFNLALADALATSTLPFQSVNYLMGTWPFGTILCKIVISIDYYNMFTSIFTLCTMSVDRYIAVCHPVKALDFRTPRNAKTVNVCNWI
UniProt P09470, sequence (whole entry, looked up): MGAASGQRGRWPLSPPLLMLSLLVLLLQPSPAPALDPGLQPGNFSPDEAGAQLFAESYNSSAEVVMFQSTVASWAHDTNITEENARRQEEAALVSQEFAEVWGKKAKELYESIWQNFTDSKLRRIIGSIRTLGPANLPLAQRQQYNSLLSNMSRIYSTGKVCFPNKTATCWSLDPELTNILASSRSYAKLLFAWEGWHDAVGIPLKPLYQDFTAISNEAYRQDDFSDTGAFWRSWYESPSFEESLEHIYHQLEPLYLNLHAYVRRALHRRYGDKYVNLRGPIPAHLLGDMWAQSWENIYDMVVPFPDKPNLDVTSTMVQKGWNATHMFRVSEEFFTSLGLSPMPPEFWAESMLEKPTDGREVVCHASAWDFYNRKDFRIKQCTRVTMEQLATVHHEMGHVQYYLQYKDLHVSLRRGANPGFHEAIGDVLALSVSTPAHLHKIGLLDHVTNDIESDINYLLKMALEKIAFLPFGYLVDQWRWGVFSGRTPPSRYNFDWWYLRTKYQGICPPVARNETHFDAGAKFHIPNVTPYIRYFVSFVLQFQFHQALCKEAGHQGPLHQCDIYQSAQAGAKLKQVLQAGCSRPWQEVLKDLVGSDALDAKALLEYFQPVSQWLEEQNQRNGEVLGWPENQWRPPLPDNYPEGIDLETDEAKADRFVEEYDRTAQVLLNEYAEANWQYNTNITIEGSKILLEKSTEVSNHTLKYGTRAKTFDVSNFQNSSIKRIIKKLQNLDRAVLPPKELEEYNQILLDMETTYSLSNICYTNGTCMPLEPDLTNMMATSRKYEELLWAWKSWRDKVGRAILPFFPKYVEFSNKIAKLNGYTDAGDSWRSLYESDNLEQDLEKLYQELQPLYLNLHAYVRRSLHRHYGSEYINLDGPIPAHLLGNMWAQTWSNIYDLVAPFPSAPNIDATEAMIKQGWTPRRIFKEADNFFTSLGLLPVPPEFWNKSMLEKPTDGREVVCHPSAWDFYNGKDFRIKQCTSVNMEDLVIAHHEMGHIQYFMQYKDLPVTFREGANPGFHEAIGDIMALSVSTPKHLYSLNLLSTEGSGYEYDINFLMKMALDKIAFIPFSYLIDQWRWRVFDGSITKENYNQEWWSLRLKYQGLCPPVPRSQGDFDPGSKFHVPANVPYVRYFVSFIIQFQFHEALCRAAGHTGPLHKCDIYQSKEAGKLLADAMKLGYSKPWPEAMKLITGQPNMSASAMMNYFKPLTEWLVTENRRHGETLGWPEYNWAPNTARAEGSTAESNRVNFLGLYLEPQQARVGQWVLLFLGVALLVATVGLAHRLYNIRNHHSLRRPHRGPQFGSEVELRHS
UniProt Q9NSY1, sequence (whole entry, looked up): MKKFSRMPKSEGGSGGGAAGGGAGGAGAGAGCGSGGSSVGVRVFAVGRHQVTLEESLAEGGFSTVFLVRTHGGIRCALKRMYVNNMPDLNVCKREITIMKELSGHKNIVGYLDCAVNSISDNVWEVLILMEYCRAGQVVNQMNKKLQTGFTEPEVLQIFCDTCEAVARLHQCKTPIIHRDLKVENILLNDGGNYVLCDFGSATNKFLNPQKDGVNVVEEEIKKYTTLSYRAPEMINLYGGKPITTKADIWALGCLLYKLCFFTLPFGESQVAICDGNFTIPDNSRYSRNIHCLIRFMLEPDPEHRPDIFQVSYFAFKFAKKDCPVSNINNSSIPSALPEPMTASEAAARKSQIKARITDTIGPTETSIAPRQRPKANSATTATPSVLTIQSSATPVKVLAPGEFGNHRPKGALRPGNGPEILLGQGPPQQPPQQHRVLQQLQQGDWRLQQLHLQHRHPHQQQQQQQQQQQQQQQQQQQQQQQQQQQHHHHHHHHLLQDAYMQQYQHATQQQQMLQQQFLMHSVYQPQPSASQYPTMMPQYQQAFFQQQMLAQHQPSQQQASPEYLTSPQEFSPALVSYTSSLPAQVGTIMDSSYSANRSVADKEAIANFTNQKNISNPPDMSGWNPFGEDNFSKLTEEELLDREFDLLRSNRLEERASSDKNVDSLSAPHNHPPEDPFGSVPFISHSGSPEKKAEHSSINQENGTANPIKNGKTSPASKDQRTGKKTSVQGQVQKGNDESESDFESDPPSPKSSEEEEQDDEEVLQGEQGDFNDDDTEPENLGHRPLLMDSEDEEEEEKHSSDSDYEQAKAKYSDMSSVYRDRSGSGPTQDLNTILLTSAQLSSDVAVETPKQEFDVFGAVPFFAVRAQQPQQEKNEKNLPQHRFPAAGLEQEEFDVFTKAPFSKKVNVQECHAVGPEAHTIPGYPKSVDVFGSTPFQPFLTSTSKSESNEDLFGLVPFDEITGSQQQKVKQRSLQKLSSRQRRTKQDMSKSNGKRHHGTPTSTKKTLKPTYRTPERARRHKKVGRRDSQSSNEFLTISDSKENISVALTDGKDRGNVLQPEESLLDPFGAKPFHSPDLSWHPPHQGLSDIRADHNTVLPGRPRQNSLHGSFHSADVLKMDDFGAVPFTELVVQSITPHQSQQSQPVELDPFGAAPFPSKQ
UniProt P33535, sequence (whole entry, looked up): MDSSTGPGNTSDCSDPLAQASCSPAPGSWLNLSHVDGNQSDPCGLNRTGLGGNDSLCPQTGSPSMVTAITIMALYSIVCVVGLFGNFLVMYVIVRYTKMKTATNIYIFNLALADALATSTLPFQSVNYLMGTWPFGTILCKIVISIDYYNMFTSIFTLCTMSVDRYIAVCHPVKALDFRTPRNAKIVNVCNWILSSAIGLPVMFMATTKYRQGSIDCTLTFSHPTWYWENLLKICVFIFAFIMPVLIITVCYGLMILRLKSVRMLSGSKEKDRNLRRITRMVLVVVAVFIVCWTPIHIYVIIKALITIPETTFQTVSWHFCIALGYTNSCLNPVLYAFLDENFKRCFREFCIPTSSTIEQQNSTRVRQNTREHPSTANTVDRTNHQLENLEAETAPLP
UniProt P30547, sequence (whole entry, looked up): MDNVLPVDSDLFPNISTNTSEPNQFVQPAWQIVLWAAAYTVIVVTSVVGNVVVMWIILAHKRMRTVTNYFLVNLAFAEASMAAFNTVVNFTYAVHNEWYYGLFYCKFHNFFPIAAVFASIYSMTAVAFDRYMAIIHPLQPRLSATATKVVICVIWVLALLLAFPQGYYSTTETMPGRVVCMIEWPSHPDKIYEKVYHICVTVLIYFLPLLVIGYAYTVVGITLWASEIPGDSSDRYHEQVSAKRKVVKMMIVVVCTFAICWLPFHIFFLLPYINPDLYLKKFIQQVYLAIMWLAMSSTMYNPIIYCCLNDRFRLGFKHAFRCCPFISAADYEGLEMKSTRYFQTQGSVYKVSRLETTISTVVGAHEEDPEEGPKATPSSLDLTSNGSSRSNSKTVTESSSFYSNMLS

CCCCCC1=C(NCC)C(=O)C(C/C=C(\C)CCC=C(C)C)=C(O)C1=O — activity (cannabinoid receptor CB1; concentration not given): inactive
CC(C)C[C@@H]1NC(=O)[C@H](Cc2ccc(O)cc2)NC(=O)[C@H](CC(N)=O)NC(=O)[C@H](CO)NC(=O)[C@@H](NC(=O)[C@@H]2CCCN2C(=O)[C@H](CC(N)=O)NC(=O)[C@H](Cc2ccc(O)cc2)NC(=O)[C@H](CCCCN)NC(=O)[C@H](CO)NC(=O)[C@H](C)NC(=O)[C@@H](N)CC(N)=O)CSC1=O — agr system activity (Accessory gene regulator protein C (Staphylococcus epidermidis, UniProt Q5HMY3); group-I agr signalling, inhibitor; concentration not given): inhibited
CCCC[C@@H](C(=O)N[C@@H](CC(=O)O)C(=O)N[C@@H](Cc1ccccc1)C(N)=O)N(C)C(=O)[C@@H](Cc1c[nH]c2ccccc12)NC(=O)CNC(=O)[C@@H](Cc1ccccc1)NC(=O)[C@@H](N)Cc1ccc(O)cc1 — activity (delta opioid receptor; mouse vas deferens): 0.45 nM
CSCC[C@H](NC(=O)[C@H](Cc1ccccc1)NC(=O)CNC(=O)[C@@H](C)NC(=O)[C@@H](N)Cc1ccc(O)cc1)C(=O)N1CCC[C@H]1C(=O)N[C@@H](CC(C)C)C(=O)N[C@@H](Cc1c[nH]c2ccccc12)C(=O)NCc1cc(C(F)(F)F)cc(C(F)(F)F)c1 — Emax (Mu-type opioid receptor (OPRM1, Cavia porcellus, UniProt P97266); agonist; guinea pig ileum; relative to: PL-017): 92.5 ± 3.1%
Cc1cc(O)cc(C)c1C[C@H](N)C(=O)N[C@@H]1CCNc2ccc(Cc3ccccc3)cc21 — stimulation (Mu-type opioid receptor (Oprm1, Rattus norvegicus, UniProt P33535); agonist; concentration not given): 81%
CC(=O)N[C@H]1[C@@H](OC[C@H](NC(=O)CNC(=O)[C@@H]2CCCN2C(=O)[C@H](C)NC(=O)[C@@H]2CCCN2C(=O)[C@@H](N)CCCNC(=N)N)C(=O)N[C@H](C(=O)N[C@@H](C)C(=O)N2CCC[C@H]2C(=O)N2CCC[C@H]2C(=O)N[C@@H](C)C(=O)N[C@@H](Cc2c[nH]cn2)C(=O)NCC(=O)O)[C@@H](C)O)O[C@H](CO)[C@H](O)[C@@H]1O — koff (16 A monoclonal antibody; SPR): 0.0312 s⁻¹
CC(C)C[C@@H](NC(=O)[C@@H](Cc1ccccc1)NC(=O)[C@H](N)Cc1ccccc1)C(=O)N[C@H](CCCCN)C(=O)N1CCC(N)(C(=O)O)CC1 — activity (mu-opioid receptor; concentration not given, selective for kappa-opioid receptor): inactive
NS(=O)(=O)c1ccc(N2N=C(C(F)(F)F)CC2c2ccc(F)cc2F)cc1 (stereo not shown) — selectivity ratio (COX-2 sheep placenta; inhibitor; relative to: COX-1 IC50 over COX-2 IC50): > 100 fold
CC(C)[C@@H](CN1CC[C@@](C)(c2cccc(C(N)=O)c2)[C@@H](C)C1)NC(=O)[C@H]1Cc2ccc(O)cc2CN1 — selectivity ratio (Kappa-type opioid receptor (OPRK1, Homo sapiens, UniProt P41145); antagonist; relative to: Ke mu over Ke kappa): 175
N[C@@H](CCSC[C@H](N)C(=O)O)C(=O)O — Km (cystathionine beta-synthase; substrate): ~83 µM
CC(CCC(=O)NC(CCCCNC(=O)C(F)(F)F)C(=O)O)C1CCC2C3C(O)CC4CC(O)CCC4(C)C3CC(O)C12C (stereo not shown) — Km (Hepatic sodium/bile acid cotransporter (SLC10A1, Homo sapiens, UniProt Q14973); substrate): 8.99 ± 2.79 µM
COc1ccc(CCN2CCN(C/C=C/[125I])CC2)cc1OC — specific binding (Sigma non-opioid intracellular receptor 1 (Sigmar1, Mus musculus, UniProt O55242); ex vivo autoradiography; mouse; dose not given, 60 min; relative to: total binding): 80%
OCCN1C[C@H](O)[C@@H](O)[C@H](O)[C@H]1CF — inhibition (α-glucosidase, yeast; concentration not given): inactive
CSCC[C@H](NC(=O)[C@H](Cc1ccccc1)NC(=O)CNC(=O)[C@@H](C)NC(=O)[C@@H](N)Cc1ccc(O)cc1)C(=O)N1CCC[C@H]1C(=O)N[C@@H](CC(C)C)C(=O)N[C@@H](Cc1c[nH]c2ccccc12)C(=O)NCc1cc(C(F)(F)F)cc(C(F)(F)F)c1 — Ke (Substance-P receptor (Cavia porcellus, UniProt P30547); antagonist; guinea pig ileum; with: naloxone 1 µM): 10 ± 2 nM
CCCCCCCCCc1c(C(=O)NCCc2ccc(N3CCCCC3)cc2)[nH]c2ccc(Cl)cc12 — cooperativity factor alpha (Cannabinoid receptor 1 (CNR1, Homo sapiens, UniProt P21554); allosteric modulator, radioligand binding; with: [3H]CP55,940): 6.8
CN1CCN(c2nc3ccccc3nc2Cl)CC1 — relative maximal response (Serotonin 3 (5-HT3) receptor (Homo sapiens, UniProt O95264+P46098); ion current; relative to: 5-HT): 0.03 ± 0.02
O=C1C=C(Br)/C(=C/Br)O1 — inhibition (Transcriptional activator protein LasR (lasR, Pseudomonas aeruginosa, UniProt P25084); antagonist; up to 10 µM): < 20%
COc1cc(O)c2c(c1)/C=C/C[C@H](O)[C@H](O)C(=O)/C=C\C[C@H](C)OC2=O — remaining binding (BMP-2-inducible protein kinase (BMP2K, Homo sapiens, UniProt Q9NSY1); 10 µM; relative to: control): 3.8%
CC(C)C[C@H](NC(=O)c1ccccc1N)C(=O)N[C@@H](Cc1ccccc1)C(=O)N[C@@H](CCCCNc1ccc([N+](=O)[O-])cc1[N+](=O)[O-])C(=O)O — Km (Angiotensin-converting enzyme, C-domain (Mus musculus, UniProt P09470); substrate; C-domain selective substrate): 4 to 12 µM

Excerpt of the above:
CSCC[C@H](NC(=O)[C@H](Cc1ccccc1)NC(=O)CNC(=O)[C@@H](C)NC(=O)[C@@H](N)Cc1ccc(O)cc1)C(=O)N1CCC[C@H]1C(=O)N[C@@H](CC(C)C)C(=O)N[C@@H](Cc1c[nH]c2ccccc12)C(=O)NCc1cc(C(F)(F)F)cc(C(F)(F)F)c1 — Ke (Substance-P receptor (Cavia porcellus, UniProt P30547); antagonist; guinea pig ileum; with: naloxone 1 µM): 10 ± 2 nM
CCCCCCCCCc1c(C(=O)NCCc2ccc(N3CCCCC3)cc2)[nH]c2ccc(Cl)cc12 — cooperativity factor alpha (Cannabinoid receptor 1 (CNR1, Homo sapiens, UniProt P21554); allosteric modulator, radioligand binding; with: [3H]CP55,940): 6.8
CN1CCN(c2nc3ccccc3nc2Cl)CC1 — relative maximal response (Serotonin 3 (5-HT3) receptor (Homo sapiens, UniProt O95264+P46098); ion current; relative to: 5-HT): 0.03 ± 0.02
